Results collected from several papers.
Protocols differ between the studies behind these lines. “And” joins repeats or separate records; there may be more than shown. Numbers after ± are the reported error.
Sequence of UniProt Q8NEW0 (whole entry, looked up): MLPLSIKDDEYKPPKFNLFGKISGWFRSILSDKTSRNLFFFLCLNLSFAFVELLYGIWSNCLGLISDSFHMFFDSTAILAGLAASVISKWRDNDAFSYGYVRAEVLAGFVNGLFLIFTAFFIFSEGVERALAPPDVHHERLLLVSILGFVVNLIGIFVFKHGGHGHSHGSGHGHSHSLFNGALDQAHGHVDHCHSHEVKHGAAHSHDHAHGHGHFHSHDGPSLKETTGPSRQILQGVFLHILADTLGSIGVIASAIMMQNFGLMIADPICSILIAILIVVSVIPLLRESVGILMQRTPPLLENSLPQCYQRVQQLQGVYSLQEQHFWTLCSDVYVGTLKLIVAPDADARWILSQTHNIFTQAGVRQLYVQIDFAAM

C[C@H]1CN(c2n[nH]c3nc(N[C@H]4CC[C@H](NS(=O)(=O)CCC(F)(F)F)CC4)ncc23)CCO1
remaining binding (Zinc transporter 7 (Homo sapiens, UniProt Q8NEW0); Kinobeads competition, item: SLC30A7; 0.032 µM, unit not given; reference: vehicle): 1.14

COc1ncccc1-c1cnn2ccc(N3CCN(C(=O)OC(C)C)CC3)nc12
drug concentration (rat, CCI mechanical allodynia model, brain; oral, 30 mg/kg, 240 min): 7.6 µM

Clc1ccccc1-c1ccccc1
literature range factor (PDMS-water partitioning; PCB compilation; reference: maximum over minimum K): 1.2

COc1cccc2c1CCCC2CCCN1CCN(C2CCCCC2)CC1 (stereo not drawn)
Tmax (CD-1 mouse, male, lung; intraperitoneal, 10 mg/kg): 15 min

COc1ccc(-c2c(-c3ccc(C#N)c(F)c3)nc(N3CCC(N)CC3)n(C)c2=O)cc1F
serious adverse event incidence (item: Hyperglycemia; human patients; oral, dose not given, dose escalation, NG): 2%

CC[C@H](C)[C@H](NC(=O)[C@H](C)NC(=O)[C@H](CCCCN)NC(=O)[C@H](CC(C)C)NC(=O)[C@H](C)NC(=O)[C@@H](NC(=O)[C@H](Cc1c[nH]cn1)NC(=O)[C@H](CC(C)C)NC(=O)[C@@H](NC(=O)[C@@H](NC(=O)[C@H](CCCCN)NC(=O)[C@H](C)NC(=O)[C@H](C)NC(=O)[C@H](CO)NC(=O)[C@H](CCCCN)NC(=O)[C@H](Cc1ccccc1)NC(=O)[C@@H](NC(=O)[C@H](CCCCN)NC(=O)[C@H](CC(C)C)NC(=O)[C@H](Cc1ccccc1)NC(=O)[C@H](CO)NC(=O)[C@H](CCCCN)NC(=O)[C@H](Cc1c[nH]c2ccccc12)NC(=O)[C@H](CCCCN)NC(C)=O)[C@@H](C)O)[C@@H](C)O)C(C)C)[C@@H](C)O)C(=O)N[C@@H](CO)C(=O)N[C@@H](CO)C(N)=O
elimination half-life (minipigs, both sexes, plasma; intravenous, 20 mg per animal): 39.6 ± 9 min

O=S(=O)(Nc1ccccc1)c1ccc(NC(=S)Nc2ccccc2)cc1
blood chemistry level (item: TBIL; female mouse, blood; oral, 20 mg/kg daily, 14 days): 0.8 mg/dL

CC[C@H](C)[C@H](NC(=O)[C@H](Cc1ccccc1)NC(=O)[C@H](CCC(=O)O)NC(=O)[C@H](CCCNC(=N)N)NC(=O)[C@H](C)NC(=O)[C@H](C)NC(=O)[C@H](CCC(N)=O)NC(=O)[C@H](CCC(=O)O)NC(=O)[C@H](CCC(=O)O)NC(=O)[C@H](CC(C)C)NC(=O)[C@H](Cc1ccc(O)cc1)NC(=O)[C@H](CO)NC(=O)[C@H](CO)NC(=O)[C@@H](NC(=O)[C@H](CC(=O)O)NC(=O)[C@H](CO)NC(=O)[C@@H](NC(=O)[C@H](Cc1ccccc1)NC(=O)[C@@H](NC(=O)CNC(=O)[C@H](CCC(=O)O)NC(=O)[C@H](C)NC(=O)CCc1cnc[nH]1)[C@@H](C)O)[C@@H](C)O)C(C)C)C(=O)N[C@@H](C)C(=O)N[C@@H](Cc1c[nH]c2ccccc12)C(=O)N[C@@H](CC(C)C)C(=O)N[C@H](C(=O)N[C@@H](CCCNC(=N)N)C(=O)NCC(=O)N[C@@H](CCCNC(=N)N)C(=O)N[C@@H](CCCCNC(=O)COCCOCCNC(=O)COCCOCCNC(=O)CC[C@H](NC(=O)CCCCCCCCCCCCCCCCC(=O)O)C(=O)O)C(=O)NCC(=O)NCC(=O)N[C@@H](CO)C(=O)N[C@@H](CCCCNC(=O)[C@H](CCCCNc1c(NCCCCCN(O)C(=O)CCC(=O)NCCCCCN(O)C(=O)CCC(=O)NCCCCCN(O)C(C)=O)c(=O)c1=O)Nc1c(NCCCCCN(O)C(=O)CCC(=O)NCCCCCN(O)C(=O)CCC(=O)NCCCCCN(O)C(C)=O)c(=O)c1=O)C(=O)O)C(C)C [zirconium-89 labelled]
tissue uptake (ex vivo gamma counting; male Sprague-Dawley rats, spleen; intravenous, 1 nmol, 24 h): 0.574 %ID/g

C[C@]1(CO)Cc2ncn(-c3ccc(C#N)c(Cl)c3)c2C(=O)O1
any adverse event incidence (Japanese subjects; 80 mg single dose): 16.7%

Clc1ccc(-c2ccc(Cl)c(Cl)c2)c(Cl)c1
literature range factor (polyethylene-water partitioning; PCB compilation; reference: maximum over minimum K): 1.5

CCCCCCCCCCCCCCCC(=O)N[C@@H](CCC(=O)NCCCC[C@H](NC(=O)[C@H](CC(=O)O)NC(=O)[C@H](CO)NC(=O)[C@@H](NC(=O)[C@H](Cc1ccccc1)NC(=O)[C@@H](NC(=O)CNC(=O)[C@H](CCC(N)=O)NC(=O)[C@H](CO)NC(=O)[C@@H](N)Cc1c[nH]cn1)[C@@H](C)O)[C@@H](C)O)C(=O)N[C@@H](CO)C(=O)N[C@@H](CCC(=O)O)C(=O)N[C@@H](Cc1ccc(O)cc1)C(=O)N[C@@H](CC(C)C)C(=O)N[C@@H](CC(=O)O)C(=O)N[C@@H](CO)C(=O)N[C@@H](CCC(=O)O)C(=O)N[C@@H](CCCNC(=N)N)C(=O)N[C@@H](C)C(=O)N[C@@H](CCCNC(=N)N)C(=O)N[C@@H](CC(=O)O)C(=O)N[C@@H](Cc1ccccc1)C(=O)N[C@H](C(=O)N[C@@H](C)C(=O)N[C@@H](Cc1c[nH]c2ccccc12)C(=O)N[C@@H](CC(C)C)C(=O)N[C@@H](CCC(=O)O)C(=O)N[C@@H](C)C(=O)NCC(=O)NCC(=O)O)C(C)C)C(=O)O
treatment-related adverse events (item: Dyspepsia; humans CrCl 45 to 60 mL/min; subcutaneous, 100 µg single dose): 0%

O=C(O)c1cc(NC(=O)C2CC2c2ccccc2)ccc1O (stereo not drawn)
tolerability (athymic nude mice; i.p., 15 mg/kg once daily, 3 days): not toxic

Cc1ncnc2c1ccn2[C@@H]1C[C@H](Oc2cc(C(F)F)c(F)c3c2CNCC3)[C@@H](O)[C@H]1O
Nausea incidence (patients; dose not given, grade ≥3; reference: patients): 0%

CC(C)CC(=O)OC[C@H]1O[C@@](C#N)(c2ccc3c(N)ncnn23)[C@H](O)[C@@H]1O
unbound fraction (plasma protein binding; rat plasma; 90 µM): 0.107

O=C(Nc1ccccc1)C1CCN(C(=O)Oc2cccnc2)CC1
adverse event Erythema (healthy women; oral, 20 mg, 7 days): 7.1%

O=C(NCCCNc1nc(Nc2cccc(NC(=O)N3CCCC3)c2)ncc1I)c1cccs1
solubility (aqueous buffer; 24 h, pH 6.8, 37 °C): < 1 µg/mL

CO[C@H]1C[C@@H]2CC[C@@H](C)[C@@](O)(O2)C(=O)C(=O)N2CCCC[C@H]2C(=O)O[C@H]([C@H](C)C[C@@H]2CC[C@@H](OC(=O)NCCOCCOCCOCCOCCOCCOCCOCCOCCC(=O)N3CCc4cc(Cn5nc(-c6ccc7oc(N)nc7c6)c6c(N)ncnc65)ccc4C3)[C@H](OC)C2)C[C@@H](O)[C@H](C)/C=C(\C)[C@@H](O)[C@@H](OC)C(=O)[C@H](C)C[C@H](C)/C=C/C=C/C=C/1C
TRAE incidence (phase 1 dose escalation, item: diarrhoea; advanced solid tumour patients; intravenous, 8 mg weekly, any grade): 25%

CCN(CCO)CCCC(C)Nc1ccnc2cc(Cl)ccc12 (stereo not drawn)
nausea patients (newly diagnosed glioblastoma patients; oral, 400 mg/dose, grade 3, added: radiotherapy and temozolomide): 14%

NC(=O)[C@H]1CCN(c2ncnc(N)c2F)C[C@@H]1N1CCC[C@@H](Nc2cc(Cl)cc(C(F)(F)F)c2)C1=O
grade ≥3 hypocalcaemia (B-cell malignancy patients; oral, 82 mg twice daily, dose): 0%

CNC(=O)c1cc(Oc2ccc(NC(=O)Nc3cc(C(C)(C)C)nn3-c3ccc4ncccc4c3)c(F)c2)ccn1
related SAE (pulmonary oedema, NCI CTC v3.0; human patients; oral, all dose levels): 2%

C[C@@H](NC(=O)N1C(=O)[C@H](Cc2ccnc(N)c2)[C@H]1C(=O)O)C1CCCCC1
incidence of grade 3 or higher AEs (healthy adult Chinese volunteers; continuous intravenous infusion, 1.5 mg/kg/h, 5-day infusion, CTCAE 5.0 grading): 0%

N[C@@H](Cc1ccc(O)c(O)c1)C(=O)O
fluctuation index ratio (human, plasma; oral, dose not given, carbidopa/levodopa every 3 h, added: opicapone; reference: after over before opicapone): 0.68

COc1ccc2nc3cc(Cl)ccc3c(Nc3cc(CN4CCCC4)c(O)c(CN4CCCC4)c3)c2n1
haematocrit (mouse, blood; oral, 57 mg/kg, tolerability, mean): 29.1%

c1ccc2c(c1)-c1cccc3c1c-2cc1ccccc13
log K(PDMS-water) (fresh water; 12 (unit not given), 20 °C, S100 sampler, 100 µm): 5.18 ± 0.01

CC(C)C[C@@H]1NC(=O)[C@H](CCCCN)NC(=O)[C@H](CC(N)=O)NC(=O)[C@H](CCCNC(=N)N)NC(=O)[C@H]([C@@H](C)O)NC(=O)[C@@H]2CSSC[C@@H]3NC(=O)[C@H]([C@@H](C)O)NC(=O)CNC(=O)CNC(=O)[C@H](C(C)C)NC(=O)[C@@H]4CSSC[C@H](NC(=O)[C@H]([C@@H](C)O)NC(=O)[C@H](CSSC[C@H](NC(=O)[C@H](C(C)C)NC(=O)[C@@H]5CCCN5C1=O)C(=O)NCC(=O)N[C@@H](CCC(=O)O)C(=O)N[C@@H]([C@@H](C)O)C(=O)N4)NC(=O)CNC(=O)[C@@H]1CCCN1C(=O)[C@H]([C@@H](C)O)NC(=O)[C@H](CC(N)=O)NC3=O)C(=O)N[C@@H](CO)C(=O)N[C@@H](Cc1c[nH]c3ccccc13)C(=O)N1CCC[C@H]1C(=O)N[C@@H](C(C)C)C(=O)N2
remaining peptide (HPLC; ammonium bicarbonate 0.1 M; 180 µM, 14 days, pH 9.0, 37 °C, deamidation stability): 92.4 ± 0.7%

CCOc1cc(Oc2ccc(C(F)(F)F)cc2Cl)ccc1[N+](=O)[O-]
body weight gain (rat, male; 125 mg/kg, 4 days): 31.2%

Clc1ccc(Cl)c(-c2cc(Cl)ccc2Cl)c1
relative organ weight (Sprague Dawley rat, spleen; intraperitoneal, 1 mg/kg): 0.0025 g/g body weight

Cn1cncc1-c1c(F)cncc1NC(=O)c1c(N)nn2cc(F)cnc12
dose-limiting toxicity anaemia (human patients; oral, 220 mg once daily, 21 days): 0%

C[C@H]1N=C(c2ccccc2F)c2cc(Br)ccc2-n2cnc(C(=O)O)c21
parent remaining (mouse liver S9 fraction; 10 µM, 2 h, glucuronidation): ~85%

CN1CC[C@@H](c2c(O)cc(O)c3c(=O)cc(-c4ccc(C(F)(F)F)cc4Cl)oc23)[C@@H]1CO
patients with adverse event (item: febrile neutropenia; B-cell malignancies or AML; oral, 100 mg, grade 3 to 4, continuous dosing): 12.5%

COc1cccc(Oc2ccccc2NC(=O)CNC(=O)c2cccc3ccccc23)c1
urea nitrogen/creatinine ratio (esterase-deficient SCID mice, male; oral, 15 mg/kg/day, 14 days, toxicity study): 300 and 180 and 185

COc1cccc(-c2ccnc(Nc3ccc(N4CCN(C)CC4)c(C(F)(F)F)c3)n2)c1
toxicity (zebrafish embryos; 50 µM, 5 d): 0%

CCc1ccc(CC/C=C/c2ccc3c(c2)C(=O)CC3)cc1
Glucose (Sprague-Dawley rat, male; oral, 450 mg/kg/day, 14 days): 5.51 mM

COc1cc2c(cc1OC)CN(CCc1ccc(NC(=O)c3cccc4c(=O)c5cccc(OC)c5[nH]c34)cc1)CC2
Tmax (CD-1 mouse, male, lung; intraperitoneal, 0.3 mg/kg): 60 min

O=C1Nc2cc3[nH]nc(-c4ccncc4)c3cc2CN1Cc1ccccc1
patients with grade ≥3 TEAE (item: QTc prolongation; patients with advanced solid tumours; intravenous, dose not given, schedules 1 and 2): 9%

Clc1ccc(-c2ccccc2)cc1
chloride (Sprague-Dawley rats, female, serum; inhalation, 23 µg/rat, 1 h after exposure): 90 ± 4 mmol/L

Clc1ccc(-c2ccc(Cl)c(Cl)c2)cc1Cl
log K(PDMS-water) (fresh water; 20 °C): 5.52 ± 0.06

CC1(C)[C@H](C(=O)OCc2cccc(Oc3ccccc3)c2)[C@@H]1C=C(Cl)Cl
CLint (pooled human liver microsomes): 0.163 mL/min/mg protein

COc1cc2c(Oc3ccc4[nH]c(C)cc4c3F)ccnc2cc1OCC1(N)CC1
grade 1 or 2 sinus bradycardia (paediatric recurrent refractory sarcoma; 10 mg): 25%
